Experimental data from different studies.
A part holds a random share of what one study measured.

Sample 1 — method: protein-binding microarray; form: double-stranded DNA, one strand shown; medium: in vitro; concentration: 0.8 µM; setting: whole 60-bp probe, no competitor; reading: higher = stronger binding; constant ends, left off below: … GTCTTGATTCGCTTGACGCTGCTG
Target: Centromere-binding protein 1, full length, N-terminal tag (CBF1, Saccharomyces cerevisiae, UniProt P17106, residues 1-351)
UniProt P17106, sequence (whole entry, looked up): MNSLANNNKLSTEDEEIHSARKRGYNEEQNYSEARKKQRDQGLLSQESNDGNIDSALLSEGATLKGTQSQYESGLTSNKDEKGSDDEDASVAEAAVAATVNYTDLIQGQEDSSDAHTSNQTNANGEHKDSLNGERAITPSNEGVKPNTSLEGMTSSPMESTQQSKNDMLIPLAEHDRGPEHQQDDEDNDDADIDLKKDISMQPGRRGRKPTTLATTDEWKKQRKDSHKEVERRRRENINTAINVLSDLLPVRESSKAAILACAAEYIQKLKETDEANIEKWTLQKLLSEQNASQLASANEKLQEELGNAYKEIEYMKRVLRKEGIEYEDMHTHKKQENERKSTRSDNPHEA
| Sequence | fluorescence intensity [a.u.] |
| --- | --- |
| CTAGCAATCAACGCGCACGCGAATGGCCAAGAGTTC | 510 |
| CTATGTTGGCTCACATACGTGCTCTTCGTATTTTTC | 490 |
| TGTACGAAGCTATGCACCGTGACTATAGTAGTTAGG | 674 |
| GAATCCCCCCTCGGGCACATGGAAATTCACTAATAG | 547 |
| GAATGATGTGCACGTGACATTGCACCCGGGTAATAG | 29900 |
| TGTACGAAGCTATATCACGCATTTATAGTAGTTAGG | 582 |
| CTACATCACTATGCACTGATGACGTCATTGTCATTC | 578 |
| GAAAGGGTTACTATACACGATGAATGATTAGACTAG | 547 |
| GAAGAATACGAAAAACACGAGGTATACCAAGGCTAG | 555 |
| GAAATGACCCTATTGCAGGTGATCCTGATGTAGTAG | 689 |
| GAATGAAAGTTCGGTTACATGATGTGCGGCAAATAG | 574 |
| CTAGCTTTTCTGTTACATGTGTGATTCTCTTCATTC | 658 |
| GAATATTGGTTGGCTGATGTTAGTAATTACTACTAG | 513 |
| GAAGCTAAGAAGATATCCGTGATTTGCATCCGATAG | 552 |
| GAACAATGTGCGAGGGCCCACGTGGCTTAATACTAG | 4310 |
| CTACACTCTCACTATCACACCTACAATCAAATTTTC | 566 |
| CCTAACTACTATATTAGCGTGCTATAGCTTCGTACA | 537 |

Sample 2 — method: aptamer microarray, sandwich; form: DNA with 2'F-ANA; medium: in vitro; concentration: 200 nM; added: Cy3 exosite-II aptamer, 400 nM; reading: higher = stronger binding; sequence: GGTTGGTGTGGTTGG
Target: Prothrombin, mature alpha-thrombin (F2, Homo sapiens, UniProt P00734)
Setting: whole 15-mer aptamer, many near background
| Modification | mean fluorescence intensity [a.u.] |
| --- | --- |
| 2'F-ANA at 2 3 6 7 10 11 14 | 272 |
| 2'F-ANA at 1 3 4 10 11 13 15 | 60.8 |
| 2'F-ANA at 1 2 4 5 7 9 11 12 15 | 82.5 |
| 2'F-ANA at 2 4 6 7 8 9 10 11 12 13 15 | 87.7 |
| 2'F-ANA at 1 3 5 8 9 11 13 14 15 | 48.5 |
| 2'F-ANA at 4 5 6 7 9 14 15 | 45 |
| 2'F-ANA at 2 3 4 5 9 11 12 14 | 51.3 |
| 2'F-ANA at 1 2 3 5 8 | 64.6 |
| 2'F-ANA at 1 2 3 4 6 8 9 13 | 103 |
| 2'F-ANA at 2 3 5 11 13 15 | 70.2 |
| 2'F-ANA at 4 5 7 8 10 13 14 | 46.8 |
| 2'F-ANA at 3 5 8 10 12 | 70.3 |
| 2'F-ANA at 1 3 7 8 9 14 15 | 103 |
| 2'F-ANA at 1 2 4 5 8 9 12 13 14 15 | 52.5 |
| 2'F-ANA at 1 5 6 9 10 11 12 13 14 15 | 48.4 |
| 2'F-ANA at 1 2 5 7 12 | 181 |
| 2'F-ANA at 1 2 3 4 6 7 8 14 | 119 |
| 2'F-ANA at 1 2 4 5 7 10 11 12 14 15 | 48 |
| 2'F-ANA at 1 2 3 5 6 7 8 9 12 13 14 15 | 51.6 |
| 2'F-ANA at 1 2 3 4 5 9 11 | 52.5 |
| 2'F-ANA at 2 4 9 10 12 15 | 143 |
| 2'F-ANA at 2 3 4 9 10 11 14 | 178 |
| 2'F-ANA at 1 2 3 5 11 12 | 97 |

Sample 3 — method: protein binding microarray; form: double-stranded DNA, one strand shown; medium: in vitro; concentration: not given; baseline: not given; reading: higher = stronger binding
Target: Histone acetyltransferase KAT6A, both winged helices, GST fusion (KAT6A, Homo sapiens, UniProt Q92794, residues 1-181)
Setting: 8-mer, flanks averaged, mean of 2 arrays, mostly near background
Target sequence (chain): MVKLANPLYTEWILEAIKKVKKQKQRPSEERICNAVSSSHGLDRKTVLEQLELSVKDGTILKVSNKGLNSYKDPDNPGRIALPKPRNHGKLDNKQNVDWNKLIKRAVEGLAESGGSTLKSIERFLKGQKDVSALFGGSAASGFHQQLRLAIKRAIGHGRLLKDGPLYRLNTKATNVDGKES
| Sequence | E-score |
| --- | --- |
| ATGGCGAG | -0.153 |
| TACAATGA | -0.167 |
| CGTTGGAA | -0.0669 |
| GGAGTGAA | -0.165 |
| GAGCTAAA | -0.2 |
| AGACGTGG | 0.00387 |
| GCGTGCGA | 0.2 |
| AACAAGCG | 0.158 |
| TGTACACA | -0.0158 |
| GTAAAAAA | 0.0136 |
| AAGTAAGG | -0.181 |
| AGGCATTG | -0.184 |
| AGGTCTGC | -0.0459 |
| ACAGATTG | -0.0998 |
| CTTCCCAC | 0.0028 |
| AAAGGAGT | -0.167 |
| CCGTTAGG | 0.188 |
| AAGAGCGC | 0.22 |
| TCCACCAA | -0.256 |
| ATAATCGG | -0.00231 |
| GGTTGAGA | -0.00048 |
| GACATCTA | -0.00261 |
| TAAACACA | -0.108 |
| CAGAGCAA | -0.249 |
| CAGTAGGC | -0.19 |

Sample 4 — method: RNA Bind-n-Seq; form: RNA; medium: in vitro; concentration: 365 nM; baseline: no-protein control; reading: higher = stronger binding
Target: RNA binding protein fox-1 homolog 2, RRM domain, GST-SBP tag (RBFOX2, Homo sapiens, UniProt O43251-10, residues 100-194)
Setting: natural RNA segment, single round, ends assumed
Constant ends, left off below: GGGAGUUCUACAGUCCGACGAUC … UGGAAUUCUCGGGUGCCAA
Construct (chain): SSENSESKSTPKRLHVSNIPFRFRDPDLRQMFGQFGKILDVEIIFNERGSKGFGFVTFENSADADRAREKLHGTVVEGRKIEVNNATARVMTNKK
| Sequence | RBNS enrichment (R) |
| --- | --- |
| UCUUCUUUCCAUUCUUCUUGCUACACCCCUUUUCCAGUUGCUGUGGACCAAUGCAUCUCUUUAAAGGCAAAUAUUAUCCAGCAAGCAGUCUACCCUGUCCUUUGCAAUUG | 0.952 |
| CAGCUCCGGAACCAGAAGUGAACCAGACCCCUCCCUCCCCCUCACUUCCUCUUCUCCGCCCUCAGCUUUCCUCUCAUGUGGCAAACGUGCGACUCUGUGGUCCUGAGUGC | 0.63 |
| GAAUGACUGGCUCCCCUGCCCUUUUAGACAAAGGCUGCUGCUUUCAGCCUUCUCCAAGGGAGAGCCUGGCUGGCUAACAGAGGGAGCCUGAGUCAGUCACAUCUGGCAGC | 0.302 |
| GGGGUGGGCUCUCCCUUAGGCUUGGGCAAGGCAGCCACCUGCCCUUGCUCUCCCUUAGUGUUCCCUGGCCUCCCUGCCAUCAGGUUGCUGGGAGUGGAGAUGGAGGGAUU | 0.291 |
| UCCAUGUAGGAGAGUGGCUCUCUCAGAUCUCUCAGGGCGUCUGGUUAUAGGGAAACAAGUGGAGCAGGGACGUGGCUUUAAUUGGAGCACUCGGCUGGGCUGCUUGGGGA | 0.441 |
| AUUUUAUUAUGUAUAUUCAAUUCAAAUAUUCUAAUGUCUAGAAAAAUGAAAACCCUGGAUAUUCUGGUCCUGAGUUGUUCAGAUGAGGGAGAGCCAACCUAUAGUUUAAC | 0.64 |
| GCAUUUCCUAUAGACAGGUUAAAUUUUGGGUUGAAAGUUUUGUGGGUGGGUUGGUGUCUCUUAUCGCUCCACUGGGGUUCCUCUCUGGAUACAGGAGGUGGCUUCUUCAG | 0.564 |
| UUCCUCUGAAGCACCCUGAAGGGUGCCAUCCUUACAGAGCUAAGUGGAGACGUUUCCAGAUCAGCCCAAGUUUACUAUAGAGACUGGCCCAGGCACUGAAUGUCUAGGAC | 0.245 |

Repeated from above (sample 1):
| Sequence | fluorescence intensity [a.u.] |
| --- | --- |
| TGTACGAAGCTATGCACCGTGACTATAGTAGTTAGG | 674 |
| GAATCCCCCCTCGGGCACATGGAAATTCACTAATAG | 547 |
| GAATGATGTGCACGTGACATTGCACCCGGGTAATAG | 29900 |
| TGTACGAAGCTATATCACGCATTTATAGTAGTTAGG | 582 |
| CTACATCACTATGCACTGATGACGTCATTGTCATTC | 578 |
| GAAAGGGTTACTATACACGATGAATGATTAGACTAG | 547 |
| GAAGAATACGAAAAACACGAGGTATACCAAGGCTAG | 555 |
| GAAATGACCCTATTGCAGGTGATCCTGATGTAGTAG | 689 |
| GAATGAAAGTTCGGTTACATGATGTGCGGCAAATAG | 574 |
| CTAGCTTTTCTGTTACATGTGTGATTCTCTTCATTC | 658 |
| GAATATTGGTTGGCTGATGTTAGTAATTACTACTAG | 513 |
| GAAGCTAAGAAGATATCCGTGATTTGCATCCGATAG | 552 |
